# Experimental data of several laboratories.
# Values joined by “and” are separate records of one study, mostly repeats; a detail may differ.
# Target: Mitogen-activated protein kinase kinase kinase 1 (MAP3K1, Homo sapiens, UniProt Q13233)
SMILES,assay,test system,conditions,scale,measurement,result
C=CC(=O)N1CCc2ccc(-n3c(=O)ccc4cnc5ccc(-c6cnn(C)c6)cc5c43)cc21,KINOMEscan,,1 µM,reference: DMSO control,remaining binding,96%
N[C@H]1CC[C@H](Nc2nccc(-c3cccnc3Oc3ccc(NC(=O)NC4CC4)c4ccccc34)n2)CC1,kinobead competition pulldown,HEK293/HCT116 lysate mixture,"10 µM, 1 h, 4 °C",lower = stronger competition,log2 LFQ intensity,24.5 and 24.4
COc1cc(Nc2nccc(-c3cnn4nc(OC)ccc34)n2)cc(C(F)(F)F)c1,"binding, competition with immobilised ligand",,1 µM,,remaining binding,100%
C=CC(=O)N1CCCC(n2c(=O)c3ncccc3n(Cc3ccc(Oc4ccccc4)cc3)c2=O)C1 (centres unmarked),"cell-free assay, competition with immobilised ligand",,1 µM,,remaining binding,72%
NC(=O)C[C@H]1CCc2sc3ncnc(O[C@H]4CC[C@H](N5CCOCC5)CC4)c3c21,"enzyme activity, inhibitor",,10 µM,,inhibition,-3%
Nc1ncc(-c2cc(-c3cnn(CC(F)(F)F)c3)ncc2F)nc1C(=O)NC1CNCC(F)C1 (centres unmarked),enzyme activity,,1 µM,reference: DMSO control,remaining activity,75.3%
Cn1cc(-c2cnc3ccc(NC(=O)Nc4ccc5sccc5c4)cc3n2)cn1,"kinase binding, KiNativ profiling, refers to: Lys2 peptide",PANC-1 lysate,2.5 µM,,inhibition,17.2%
NC(=O)[C@@H](O)C[C@H]1CCc2sc3ncnc(O[C@H]4CC[C@H](N5CCOCC5)CC4)c3c21,"enzyme activity, inhibitor",,10 µM,,inhibition,1%
COc1cc(Nc2nc(C)cc(-c3cnn4nc(OC)ccc34)n2)cc(C(F)(F)F)c1,inhibitor,,1 µM,reference: control,remaining activity,86%
COc1c(Cl)cccc1Nc1c(-c2ccncc2C#C[C@@]2(C)CCCN2C(=O)/C=C/CN(C)C)[nH]c2c1C(=O)NCC2,"binding, competition with immobilised ligand",,3 µM,,remaining binding,89%
CCN1CCN(Cc2ccc(C(=O)Nc3ccc(C)c(NCc4cnc5[nH]ccc5c4OC)c3)cc2C(F)(F)F)CC1,"binding, competition with immobilised ligand",,1 µM,,remaining binding,27%
C=CC(=O)Nc1cc(-c2nn(C3CCN(CCNC(=O)[C@H](C)CCC45CC6CC(CC(C6)C4)C5)CC3)c3ncnc(N)c23)ccc1Oc1ccccc1,"inhibitor, KiNativ profiling",biochemical,2 µM,,inhibition,30.3%
CCn1cc(C(=O)O)c(=O)c2c(N)c(F)c(NC3CCCCC3)cc21,kinase activity,,"0.1 µM, added: ATP at Km",,inhibition,23.8%
Nc1ncc2c(n1)-c1c([nH]c3ccc(C4=CCOCC4)cc13)CCC2,"binding, competition with immobilised ligand",,1 µM,,remaining binding,87%
CS(=O)(=O)Nc1cccc(-c2csc3cnc(Nc4ccc(N5CCN(CCCCCOc6cccc7c6C(=O)N(C6CCC(=O)NC6=O)C7=O)CC5)cc4)nc23)c1 (centres unmarked),"probe labelling, inhibitor, KiNativ chemoproteomics",MOLT-4,1 µM,,inhibition,8.62%
Cc1cnc2nc1Nc1cccc(c1)COC/C=C/COCc1cc(ccc1OCCN1CCOCC1)N2,binding,,0.1 µM,,remaining binding,100%
Cc1ccc(-c2c(/C=C(\C#N)C(=O)NC(C)C)n(CCCO)c3ncnc(N)c23)cc1,"cell-free assay, competition with immobilised ligand",,1 µM,,remaining binding,2.7%
CNC1C[S+]2CC[S+]3CC[S+](C1)[Ru-4]321([N]=C=S)[n]2c3ccc(OC)cc3c3c4c(c5cc(F)c[n+]1c5c32)C(=O)NC4=O (centres unmarked),KinomeScan,,0.1 µM,reference: untreated,remaining binding,99%
CNC(=O)C1CCN(c2cc(C)c(F)cc2NC(=O)c2ccc(-c3cc(O)ccc3C)c(C)c2)CC1,"binding, competition with immobilised ligand",,1 µM,,remaining binding,100%
CC(C)=CC1OC(C)(C)C2C=C3C(=O)C(Cl)=CC(O)C3C3C(O)C4OC4C(=O)C132 (centres unmarked),"cell-free assay, competition with immobilised ligand",,10 µM,,remaining binding,93%

# For quick reference, copied from above:
SMILES,assay,test system,conditions,scale,measurement,result
CNC1C[S+]2CC[S+]3CC[S+](C1)[Ru-4]321([N]=C=S)[n]2c3ccc(OC)cc3c3c4c(c5cc(F)c[n+]1c5c32)C(=O)NC4=O (centres unmarked),KinomeScan,,0.1 µM,reference: untreated,remaining binding,99%
C=CC(=O)N1CCCC(n2c(=O)c3ncccc3n(Cc3ccc(Oc4ccccc4)cc3)c2=O)C1 (centres unmarked),"cell-free assay, competition with immobilised ligand",,1 µM,,remaining binding,72%
CCn1cc(C(=O)O)c(=O)c2c(N)c(F)c(NC3CCCCC3)cc21,kinase activity,,"0.1 µM, added: ATP at Km",,inhibition,23.8%
